# Results from different studies.
# Protocols differ between the studies behind these lines. ± marks the error that the study gave.
# uncharacterized protein: uncharacterized protein (Streptococcus mutans serotype c, UniProt Q8DS94)
SMILES,target,assay,system,conditions,quantity,result
CC[C@H](C)[C@@H]1NC(=O)[C@H](CC(=O)O)NC(=O)CNC(=O)[C@H]([C@@H](C)CC)NC(=O)[C@H]([C@@H](C)CC)NC(=O)[C@H](CCC(=O)O)NC(=O)CNC(=O)[C@@H]2CCCN2C(=O)[C@H](CCCNC(=N)N)NC(=O)[C@H]([C@@H](C)O)NC(=O)[C@H](CC(N)=O)NC(=O)[C@H](CC(N)=O)NC(=O)[C@H](CC(N)=O)NC(=O)[C@@H]2CCCN2C(=O)[C@H](CCCNC(=N)N)NC(=O)[C@H]([C@@H](C)O)NC(=O)[C@@H](NC(=O)[C@H](CC(N)=O)NC(=O)[C@@H](NC(=O)[C@H](CCC(=O)O)NC(=O)CCCCCNC(=O)CCCC[C@@H]2SC[C@@H]3NC(=O)N[C@@H]32)[C@@H](C)CC)CSSC[C@@H](C(=O)N[C@@H](CC(=O)N[C@@H]2O[C@H](CO)[C@@H](O[C@@H]3O[C@H](CO)[C@@H](O[C@@H]4O[C@H](CO[C@H]5O[C@H](CO[C@H]6O[C@H](CO)[C@@H](O)[C@H](O)[C@@H]6O[C@H]6O[C@H](CO)[C@@H](O)[C@H](O)[C@@H]6O)[C@@H](O)[C@H](O[C@H]6O[C@H](CO)[C@@H](O)[C@H](O)[C@@H]6O[C@H]6O[C@H](CO)[C@@H](O)[C@H](O)[C@@H]6O)[C@@H]5O)[C@@H](O)[C@H](O[C@H]5O[C@H](CO)[C@@H](O)[C@H](O)[C@@H]5O[C@H]5O[C@H](CO)[C@@H](O)[C@H](O)[C@@H]5O[C@H]5O[C@H](CO)[C@@H](O)[C@H](O)[C@@H]5O)[C@@H]4O)[C@H](O)[C@H]3NC(C)=O)[C@H](O)[C@H]2NC(C)=O)C(=O)N[C@H](C(=O)N[C@@H](CO)C(=O)N[C@@H](CCCNC(=N)N)C(=O)N[C@@H](C)C(=O)N[C@@H](CCCCN)C(=O)N[C@@H](Cc2c[nH]c3ccccc23)C(=O)N[C@@H](CC(N)=O)C(N)=O)[C@@H](C)CC)NC(=O)[C@H](Cc2c[nH]cn2)NC(=O)[C@H](C)NC(=O)[C@H](CCC(N)=O)NC(=O)[C@H](CCCNC(=N)N)NC1=O,PGT128 antibody,SPR,,"pH 7.4, 25 °C",Kd,3750 nM
CC(C)C[C@H](NC(=O)[C@H](CO)NC(=O)CNC(=O)[C@@H](N)CO)C(=O)N[C@@H](CO)C(=O)N[C@H](C(=O)N[C@H](Cc1ccccc1)C(=O)N[C@@H](Cc1ccccc1)C(=O)N[C@@H](CCCNC(=N)N)C(=O)N[C@@H](CC(C)C)C(=O)N[C@@H](Cc1ccccc1)C(=O)N[C@@H](CC(N)=O)C(=O)N[C@@H](CCCNC(=N)N)C(=O)N[C@@H](CO)C(=O)N[C@@H](Cc1ccccc1)C(=O)N[C@H](C(=O)N[C@@H](CCC(N)=O)C(=O)N[C@@H](C)C(=O)O)[C@@H](C)O)[C@@H](C)O,uncharacterized protein,,Streptococcus mutans,,EC50,> 1000 nM
CC(=O)N[C@@H](CCCNC(=N)N)C(=O)N[C@@H](Cc1ccc(O)cc1)C(=O)N[C@@H](CCCNC(=N)N)C(=O)N[C@@H](CC(C)C)C(=O)N[C@@H](CCCNC(=N)NC(=O)NCCCCN)C(=O)N[C@@H](Cc1ccc(O)cc1)C(N)=O,"NPY2R (Homo sapiens, UniProt P49146)","ligand displacement, radioligand",,,Ki,> 5000 nM
COc1ccc(C[C@H]2C(=O)N(C)[C@@H](Cc3ccc(O)cc3)C(=O)N(C)[C@@H](Cc3ccccc3)C(=O)N[C@@H](CC(N)=O)C(=O)NCC(=O)N(C)[C@@H](Cc3ccc(O)cc3)C(=O)N[C@@H](CC(N)=O)C(=O)N[C@@H](Cc3c[nH]cn3)C(=O)N[C@@H](Cc3ccc(O)cc3)C(=O)N[C@@H](Cc3c[nH]c4ccccc34)C(=O)N[C@H](C(N)=O)CSCC(=O)N[C@H](Cc3ccc(O)cc3)C(=O)N[C@@H](CC(=O)O)C(=O)N[C@@H](CO)C(=O)N[C@@H](Cc3ccc(O)cc3)C(=O)N[C@@H](C)C(=O)N2C)cc1,"2,3-bisphosphoglycerate-independent phosphoglycerate mutase (Helicobacter pylori, UniProt B5Z7X6)",biochemical,,,AC50,977 nM
CC(C)C[C@H](NC(=O)[C@H](C)NC(=O)[C@H](CCC(N)=O)NC(=O)[C@@H](NC(=O)[C@H](Cc1ccccc1)NC(=O)[C@H](CO)NC(=O)[C@H](CCCNC(=N)N)NC(=O)[C@H](CC(N)=O)NC(=O)[C@H](Cc1ccccc1)NC(=O)[C@H](CC(C)C)NC(=O)[C@H](CCCNC(=N)N)NC(=O)[C@H](Cc1ccccc1)NC(=O)[C@H](Cc1ccccc1)NC(=O)[C@@H](NC(=O)[C@H](CO)NC(=O)[C@H](CC(C)C)NC(=O)[C@H](CO)NC(=O)CNC(=O)[C@H](N)CO)[C@@H](C)O)[C@@H](C)O)C(=O)NCC(=O)N[C@@H](CCCCN)C(=O)O,uncharacterized protein,,Streptococcus mutans,,EC50,140 nM
CC(C)C[C@H](NC(=O)CNC(=O)[C@H](CCC(N)=O)NC(=O)CNC(=O)CNC(=O)CNC(=O)CNC(=O)CNC(=O)CNC(=O)CNC(=O)CNC(=O)CNC(=O)CNC(=O)[C@H](CO)NC(=O)[C@H](C)NC(=O)[C@H](CC(C)C)NC(=O)[C@H](CC(=O)O)NC(=O)[C@H](CC(C)C)NC(=O)[C@H](C)NC(=O)[C@H](CC(=O)O)NC(=O)[C@H](C)NC(=O)[C@H](CC(C)C)NC(=O)CNC(=O)[C@H](CCC(N)=O)NC(=O)COCCNC(=S)Nc1ccc2c(c1)C(=O)OC21c2ccc(O)cc2Oc2cc(O)ccc21)C(=O)N[C@@H](C)C(=O)N[C@@H](CC(=O)O)C(=O)N[C@@H](C)C(=O)N[C@@H](CC(C)C)C(=O)N[C@@H](CC(=O)O)C(=O)N[C@@H](CC(C)C)C(=O)N[C@@H](C)C(=O)N[C@@H](CO)C(N)=O,"14-3-3-like protein C (Nicotiana tabacum, UniProt P93343)","binding, fluorescence polarization",,pH 7.4,Kd,5900 ± 900 nM
CC[C@H](C)[C@H](NC(=O)[C@H](CCC(=O)O)NC(=O)[C@H](Cc1ccc(Br)cc1)NC(=O)[C@@H](C)NC(=O)[C@@H](N)Cc1ccc(O)cc1)C(=O)N[C@H](C(=O)NCC(N)=O)[C@@H](C)CC,"Oprk1 (Mus musculus, UniProt P33534)","ligand displacement, radioligand",,cell membranes,Ki,> 1000 nM
CC(C)[C@@H](CN1CC[C@@](C)(c2cccc(C(N)=O)c2)[C@@H](C)C1)NC(=O)[C@H]1Cc2ccc(O)cc2CN1,"KCNH2 (Homo sapiens, UniProt Q12809)",,,"60 min, pH 7.4",Ki,> 10000 nM
CC(=O)N[C@@H](Cc1c[nH]cn1)C(=O)N[C@@H](CCCNC(=N)N)C(=O)N[C@@H](CCCNC(=N)N)C(=O)N[C@@H](CCCNC(=N)N)C(=O)N[C@@H](CCCNC(=N)N)C(=O)N[C@@H](CCCNC(=N)N)C(=O)N[C@@H](CCCNC(=N)N)C(=O)N[C@@H](CCCNC(=N)N)C(=O)N[C@@H](CCCNC(=N)N)C(=O)N[C@@H](Cc1c[nH]cn1)C(N)=O,"Albumin (ALB, Bos taurus, UniProt P02769)",fluorescence quenching,,together with: site competitor phenylbutazone,Kb,680000 M⁻¹

# For quick reference, copied from above:
SMILES,target,assay,system,conditions,quantity,result
CC(C)[C@@H](CN1CC[C@@](C)(c2cccc(C(N)=O)c2)[C@@H](C)C1)NC(=O)[C@H]1Cc2ccc(O)cc2CN1,"KCNH2 (Homo sapiens, UniProt Q12809)",,,"60 min, pH 7.4",Ki,> 10000 nM
